Results of several laboratories.
Protocols differ between the studies behind these lines. “And” joins repeats or separate records; there may be more than shown. ± gives the spread as reported. Converted amounts (≈) assume the structure as drawn.

SMILES | target or system | assay | system | setting | scale | quantity | value
CCNCCc1c[nH]c2cccc(O)c12.CCNCCc1c[nH]c2cccc(O)c12.O=C(O)CCC(=O)O | – | – | C57BL/6J mice | subcutaneous, 0.1 mg/kg, 30 min session | – | distance travelled | 2510 ± 214 cm
CC[C@H](C)[C@H](NC(=O)[C@H](C)NC(=O)[C@H](CCCCN)NC(=O)[C@H](CC(C)C)NC(=O)[C@H](C)NC(=O)[C@@H](NC(=O)[C@H](Cc1c[nH]cn1)NC(=O)[C@H](CC(C)C)NC(=O)[C@@H](NC(=O)[C@@H](NC(=O)[C@H](CCCCN)NC(=O)[C@H](C)NC(=O)[C@H](C)NC(=O)[C@H](CO)NC(=O)[C@H](CCCCN)NC(=O)[C@H](Cc1ccccc1)NC(=O)[C@@H](NC(=O)[C@H](CCCCN)NC(=O)[C@H](CC(C)C)NC(=O)[C@H](Cc1ccccc1)NC(=O)[C@H](CO)NC(=O)[C@H](CCCCN)NC(=O)[C@H](Cc1c[nH]c2ccccc12)NC(=O)[C@H](CCCCN)NC(C)=O)[C@@H](C)O)[C@@H](C)O)C(C)C)[C@@H](C)O)C(=O)N[C@@H](CO)C(=O)N[C@@H](CO)C(N)=O | Pseudomonas aeruginosa | – | ATCC 27853 | – | – | MBC50 | 8 µg/mL (≈ 2.73 µM)
O=C1c2c(O)c(=O)ccn2N([C@@H]2c3ccccc3SCc3c2ccc(F)c3F)[C@@H]2COCCN12 | influenza A virus H1N1 | – | A/WSN/33, BALB/c mice, lung | subcutaneous, 0.125 mg/kg every 6 h, 24 h | – | lung virus titre | 3.5 log10 TCID50/mL and 4 log10 TCID50/mL and 3.67 log10 TCID50/mL and 3 log10 TCID50/mL and 4.22 log10 TCID50/mL
CN1C(=O)C(C2C3=C(CC(C)(C)CC3=O)Oc3c(O)cccc32)C(=O)N(C)C1=O (stereo not drawn) | 3T3-L1 pre-adipocytes | cell viability, MTT | – | 72 h | – | IC50 | > 100 µg/mL
CCCCCCCCCCCCCCCC[N+](C)(C)CCCCCCCCCC[N+](C)(C)CCCCCCCCCCCCCCCC.[Br-].[Br-] | influenza A virus A/PR/8/34 (H1N1) | – | – | concentration not given, co-treatment | – | protection | 77.2 ± 5.2%
COc1c(CCC[P+](c2ccccc2)(c2ccccc2)c2ccccc2)cc2c(c1OC)OCO2.[I-] | U-251 | SRB | – | – | – | GI50 | -5.75 log M
CCOP(=S)(OCC)Oc1cnc2ccccc2n1 | nanobody A4 | ic-ELISA | – | concentration not given | baseline: coumaphos IC50 over compound IC50, mass basis | cross-reactivity | 27%
C[C@H]1O[C@@H](O[C@H]2CC[C@@]3(C)[C@@H](CC[C@]4(C)[C@@H]3C=C[C@]35OC[C@@]6(CCC(C)(C)C[C@H]63)[C@@H](O)C[C@]54C)[C@]2(C)CO)[C@H](O)[C@@H](O[C@@H]2O[C@H](CO)[C@@H](O)[C@H](O)[C@H]2O)[C@H]1O | – | – | mouse, chronic-plus-binge ethanol, hepatic SIRT1 knockdown, liver | dose not given, high dose | – | hepatic triglycerides | 0.217 mmol/g protein and 0.11 mmol/g protein and 0.237 mmol/g protein and 0.135 mmol/g protein and 0.212 mmol/g protein and 0.227 mmol/g protein
O=C(O)/C=C/C(=O)O.Oc1cccc2[nH]cc(CCNC3CCCCC3)c12 | – | – | C57BL/6J mice | subcutaneous, 0.3 mg/kg, 30 min | – | distance travelled | 2460 ± 274 cm
CCCCCCCCCCCC[N+](C)(C)CCCCCC[N+](C)(C)CCCCCCCCCCCC.[Br-].[Br-] | influenza A virus A/PR/8/34 (H1N1) | – | – | concentration not given, co-treatment | – | HA titre reduction | 5.5 ± 0.5 log units
CC(C)(C)NCCc1c[nH]c2cccc(O)c12.CC(C)(C)NCCc1c[nH]c2cccc(O)c12.O=C(O)/C=C/C(=O)O | – | – | C57BL/6J mice | subcutaneous, 3 mg/kg, 30 min | – | distance travelled | 2750 ± 266 cm
CC(=O)NC[C@H]1CN(c2ccc(N3CCOCC3)c(F)c2)C(=O)O1 | Enterococcus faecalis | – | vancomycin-intermediate, 10 isolates | pH 7.0 | – | MIC50 | 2 µg/mL (≈ 5.93 µM)
CN1CCN(S(=O)(=O)c2cc([N+](=O)[O-])ccc2N(CCOS(C)(=O)=O)CCOS(C)(=O)=O)CC1 | – | – | NSG mice, sample BJ PDX | intraperitoneal, 25 mg/kg weekly x3 | baseline: vehicle | EFS delay (T-C) | > 386 days
CCCCNCCc1c[nH]c2cccc(O)c12.O=C(O)/C=C/C(=O)O | – | – | C57BL/6J mice | subcutaneous, 0.03 mg/kg | – | head twitch count | 7 ± 2.8
CCCCCCCCCCCCCCCCCC[N+](C)(C)CCCCCCCCCCCC[N+](C)(C)CCCCCCCCCCCCCCCCCC.[Br-].[Br-] | influenza A virus A/PR/8/34 (H1N1) | – | – | concentration not given, co-treatment | – | HA titre reduction | 0 log units
CCCNCCc1c[nH]c2cccc(O)c12.CCCNCCc1c[nH]c2cccc(O)c12.O=C(O)/C=C/C(=O)O | – | – | C57BL/6J mice | subcutaneous, 10 mg/kg | – | head twitch count | 52.2 ± 3.3
CC[C@H](C)[C@@H]1NC(=O)[C@@H]2CCCN2C(=O)[C@H](CC(C)C)NC(=O)[C@H](CC(C)C)NC(=O)CNC(=O)[C@@H](NC(=O)[C@@H](NC(=O)[C@H](CC(=O)O)NC(=O)CNC(=O)[C@@H](NC(=O)[C@H](C)NC(=O)CNC(=O)[C@H](CCCCN)NC(=O)[C@H](CC(C)C)NC(=O)[C@H](CC(C)C)NC(=O)[C@H](CCCCN)NC(=O)CNC(=O)[C@@H](NC(=O)[C@@H](N)CC(C)C)C(C)C)C(C)C)C(C)C)CSSC[C@@H](C(=O)O)NC1=O | – | RNA-seq, measured: Il18r1 | mouse, traumatic brain injury model, frontal cortex and hippocampus | dose not given | baseline: TBI alone | log2 fold change | -2.05
CC(C)NCCc1c[nH]c2cccc(O)c12.O=C(O)/C=C/C(=O)O | – | – | C57BL/6J mice | subcutaneous, 0.03 mg/kg | – | head twitch count | 6.4 ± 1
CS(=O)(=O)CCCn1c(Cn2c(=O)n(CC(F)(F)F)c3ccncc32)cc2cc(Cl)ccc21 | respiratory syncytial virus | RT-qPCR | hospitalized infants 1-24 months, nasal swab | oral, 6, 4.5 or 3 mg/kg daily, day 3, mid dose by age cohort | baseline: baseline | LS mean viral load change | -1.24 log10 copies/mL
CCCCCCCCCCCC[N+](C)(C)CCCNCCC[N+](C)(C)CCCCCCCCCCCC.[Br-].[Br-] | influenza A virus A/PR/8/34 (H1N1) | – | – | concentration not given, pre-treatment | – | protection | 62.8 ± 16.3%
C=CCNCCc1c[nH]c2cccc(O)c12.C=CCNCCc1c[nH]c2cccc(O)c12.O=C(O)/C=C/C(=O)O | – | – | C57BL/6J mice | subcutaneous, 3 mg/kg | – | head twitch count | 74.3 ± 3.8

Repeated from above:
SMILES | target or system | assay | system | setting | scale | quantity | value
CCCCCCCCCCCCCCCC[N+](C)(C)CCCCCCCCCC[N+](C)(C)CCCCCCCCCCCCCCCC.[Br-].[Br-] | influenza A virus A/PR/8/34 (H1N1) | – | – | concentration not given, co-treatment | – | protection | 77.2 ± 5.2%
COc1c(CCC[P+](c2ccccc2)(c2ccccc2)c2ccccc2)cc2c(c1OC)OCO2.[I-] | U-251 | SRB | – | – | – | GI50 | -5.75 log M
CCOP(=S)(OCC)Oc1cnc2ccccc2n1 | nanobody A4 | ic-ELISA | – | concentration not given | baseline: coumaphos IC50 over compound IC50, mass basis | cross-reactivity | 27%
